Earlier results, collected from citations in different studies.
Each numbered part shows a few of the values that one paper quotes. ± gives the spread as reported.
Chain of UniProt Q9NPD5 (whole entry, looked up): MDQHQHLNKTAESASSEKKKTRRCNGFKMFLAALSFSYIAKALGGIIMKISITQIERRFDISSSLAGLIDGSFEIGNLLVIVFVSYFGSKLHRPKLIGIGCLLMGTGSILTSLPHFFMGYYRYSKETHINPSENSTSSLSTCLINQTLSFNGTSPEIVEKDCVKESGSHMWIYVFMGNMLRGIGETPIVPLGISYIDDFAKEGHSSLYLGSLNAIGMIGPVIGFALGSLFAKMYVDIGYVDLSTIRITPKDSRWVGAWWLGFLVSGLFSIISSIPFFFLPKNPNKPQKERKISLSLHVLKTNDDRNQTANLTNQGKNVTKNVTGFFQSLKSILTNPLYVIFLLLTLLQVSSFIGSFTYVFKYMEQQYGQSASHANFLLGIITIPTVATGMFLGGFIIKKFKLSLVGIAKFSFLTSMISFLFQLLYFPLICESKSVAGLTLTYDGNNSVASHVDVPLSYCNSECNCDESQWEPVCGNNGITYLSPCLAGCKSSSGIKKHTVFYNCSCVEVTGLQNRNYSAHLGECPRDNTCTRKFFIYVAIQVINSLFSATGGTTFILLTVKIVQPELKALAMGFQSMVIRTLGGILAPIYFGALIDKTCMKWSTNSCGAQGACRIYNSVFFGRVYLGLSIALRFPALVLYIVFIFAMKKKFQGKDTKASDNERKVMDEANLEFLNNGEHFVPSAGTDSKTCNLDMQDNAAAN
Chain of UniProt Q9UNQ0 (whole entry, looked up): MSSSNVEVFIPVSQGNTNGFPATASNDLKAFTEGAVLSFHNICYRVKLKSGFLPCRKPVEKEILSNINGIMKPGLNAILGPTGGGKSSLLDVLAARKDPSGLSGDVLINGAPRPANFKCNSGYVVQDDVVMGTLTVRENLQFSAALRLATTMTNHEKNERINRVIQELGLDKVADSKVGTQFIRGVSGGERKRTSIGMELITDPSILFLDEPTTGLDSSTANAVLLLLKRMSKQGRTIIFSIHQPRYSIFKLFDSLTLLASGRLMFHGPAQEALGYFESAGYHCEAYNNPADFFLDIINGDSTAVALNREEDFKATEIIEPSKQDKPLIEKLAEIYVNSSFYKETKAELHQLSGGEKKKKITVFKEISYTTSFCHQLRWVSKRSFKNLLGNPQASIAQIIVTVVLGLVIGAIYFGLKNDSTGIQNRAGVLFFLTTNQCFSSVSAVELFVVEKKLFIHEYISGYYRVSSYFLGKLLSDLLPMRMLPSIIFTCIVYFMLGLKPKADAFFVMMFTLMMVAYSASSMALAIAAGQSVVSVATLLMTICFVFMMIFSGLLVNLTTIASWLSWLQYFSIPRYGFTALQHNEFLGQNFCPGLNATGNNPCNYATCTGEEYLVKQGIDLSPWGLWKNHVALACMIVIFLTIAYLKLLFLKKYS
Chain of UniProt P08684 (whole entry, looked up): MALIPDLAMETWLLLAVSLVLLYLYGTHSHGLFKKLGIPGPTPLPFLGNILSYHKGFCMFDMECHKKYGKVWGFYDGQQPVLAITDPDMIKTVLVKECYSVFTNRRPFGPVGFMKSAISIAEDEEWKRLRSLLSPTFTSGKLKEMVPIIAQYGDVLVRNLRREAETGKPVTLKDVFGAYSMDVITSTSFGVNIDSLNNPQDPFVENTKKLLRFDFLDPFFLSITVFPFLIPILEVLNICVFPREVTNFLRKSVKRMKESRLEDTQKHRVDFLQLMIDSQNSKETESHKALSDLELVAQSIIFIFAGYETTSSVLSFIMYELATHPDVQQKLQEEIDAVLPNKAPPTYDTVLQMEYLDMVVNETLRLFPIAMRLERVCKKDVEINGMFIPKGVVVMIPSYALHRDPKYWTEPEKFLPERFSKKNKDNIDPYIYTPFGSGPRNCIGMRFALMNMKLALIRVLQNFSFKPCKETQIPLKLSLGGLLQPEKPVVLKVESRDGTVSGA
Chain of UniProt O42275 (whole entry, looked up): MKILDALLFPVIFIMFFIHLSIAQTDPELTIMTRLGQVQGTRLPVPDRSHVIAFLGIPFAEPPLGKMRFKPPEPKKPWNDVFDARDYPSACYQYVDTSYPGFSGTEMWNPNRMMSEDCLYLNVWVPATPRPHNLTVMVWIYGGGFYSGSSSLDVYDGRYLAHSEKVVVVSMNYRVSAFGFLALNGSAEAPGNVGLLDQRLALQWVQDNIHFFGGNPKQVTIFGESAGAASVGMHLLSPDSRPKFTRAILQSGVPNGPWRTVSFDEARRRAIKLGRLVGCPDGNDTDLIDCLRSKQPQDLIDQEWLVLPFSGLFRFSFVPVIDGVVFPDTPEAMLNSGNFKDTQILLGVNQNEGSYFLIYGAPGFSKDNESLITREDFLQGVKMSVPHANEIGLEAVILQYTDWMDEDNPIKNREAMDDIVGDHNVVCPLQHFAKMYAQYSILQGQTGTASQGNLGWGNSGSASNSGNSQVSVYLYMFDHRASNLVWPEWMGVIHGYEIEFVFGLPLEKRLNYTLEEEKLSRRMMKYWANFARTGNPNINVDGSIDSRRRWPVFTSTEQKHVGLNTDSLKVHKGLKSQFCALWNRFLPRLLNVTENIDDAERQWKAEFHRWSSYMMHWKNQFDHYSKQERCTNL

Study 1
Target: HLA class I histocompatibility antigen, C alpha chain, allele C*04:01 (Homo sapiens, UniProt P10321)
Observed: peptide-MHC binding
Form: peptide
Quantity: IC50
RTLNLFRYK: > 5 µM
VEYHYTFYI: > 5 µM
SLLERGQQLGV: > 20 µM
VPIAWAAA: > 20 µM
FMYEGDTPL: > 5 µM
KMFNRASYF: 0.848 µM
YTFFFTQYF: 20 µM
RLPAYAPLL: 0.294 µM
WQLTSIWPI: > 5 µM
YYWPRPRRY: 20 µM
KAIGTVLV: 20 µM
FARQNNGAF: > 5 µM
GSSDFQVHFLK: > 20 µM
YTMELCGAM: 20 µM
CSDETTLYY: 20 µM
RPAPARLPL: > 5 µM
LVTMGTGTFGR: > 20 µM
SYMSTFPLF: 0.089 µM
KITDFGIAK: > 5 µM
ILNRETLLDFV: > 20 µM
LPADPASVL: > 20 µM
FEYGGFPPA: > 5 µM
YYNAFHWAI: 20 µM
FQPQNGQYI: 20 µM
MMMSTAVAF: 3.23 µM

Mixed results
Ahr: Aryl hydrocarbon receptor (Ahr, Rattus norvegicus, UniProt P41738)
Chain of UniProt P41738 (whole entry, looked up): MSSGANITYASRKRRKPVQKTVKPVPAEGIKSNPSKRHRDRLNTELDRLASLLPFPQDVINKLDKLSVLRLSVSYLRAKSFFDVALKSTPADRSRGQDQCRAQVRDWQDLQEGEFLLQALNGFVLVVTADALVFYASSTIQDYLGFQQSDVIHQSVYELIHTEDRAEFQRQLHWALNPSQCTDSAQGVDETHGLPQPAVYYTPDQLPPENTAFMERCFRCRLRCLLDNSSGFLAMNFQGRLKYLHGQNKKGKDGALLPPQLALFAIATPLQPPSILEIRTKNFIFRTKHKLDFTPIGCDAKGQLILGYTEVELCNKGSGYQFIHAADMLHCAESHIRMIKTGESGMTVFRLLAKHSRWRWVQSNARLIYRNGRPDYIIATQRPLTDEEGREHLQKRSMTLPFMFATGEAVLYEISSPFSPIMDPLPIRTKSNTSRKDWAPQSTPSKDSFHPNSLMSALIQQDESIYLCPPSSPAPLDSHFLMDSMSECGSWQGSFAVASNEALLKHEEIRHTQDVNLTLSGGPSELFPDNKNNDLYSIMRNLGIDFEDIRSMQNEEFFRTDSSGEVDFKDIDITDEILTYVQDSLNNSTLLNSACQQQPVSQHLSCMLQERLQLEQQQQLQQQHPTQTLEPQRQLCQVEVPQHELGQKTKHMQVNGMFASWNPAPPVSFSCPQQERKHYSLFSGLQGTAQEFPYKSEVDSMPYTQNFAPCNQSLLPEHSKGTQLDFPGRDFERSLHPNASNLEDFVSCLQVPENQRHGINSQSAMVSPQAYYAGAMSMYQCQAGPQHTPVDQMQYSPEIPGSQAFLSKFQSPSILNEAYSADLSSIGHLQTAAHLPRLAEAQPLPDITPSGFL
Nc1nc2nc[nH]c2c(=O)[nH]1
Kd (class I riboswitch variant, Ppe; single binding equivalent): 351 ± 99 nM

Cn1ncnc1[C@H]1c2n[nH]c(=O)c3cc(F)cc(c23)N[C@@H]1c1ccc(F)cc1
highest non-severely toxic dose (rat; 28-day repeat dose): 0.05 mg/kg/day

CCCCCCCCCCCCCC(=O)O[C@@H]1[C@@H](C)[C@@]2(O)[C@@H](C=C(CO)C[C@]3(O)C(=O)C(C)=C[C@@H]23)[C@@H]2C(C)(C)[C@]12OC(C)=O
Ki (phorbol ester receptor; radioligand binding): 0.59 nM

C/C=C1/CN2CC[C@]34C(=C(C(=O)OC)[C@H]1C[C@H]23)Nc1ccccc14
IC50 (kappa opioid receptor; cAMP level): 0.24 µM

CN[C@H](C)[C@H](O)c1ccccc1
Ki (human OCT1; competitive inhibitor; MDCK-hOCT1 cell membranes; with: [3H]MPP+): 1120 nM

O=C(c1cc(Cc2n[nH]c(=O)c3ccccc23)ccc1F)N1CCN(C(=O)C2CC2)CC1
NOAEL (rat; oral, 4 weeks daily dosing): 15 mg/kg/day

CCCc1nn(C)c2c(=O)[nH]c(-c3cc(S(=O)(=O)N4CCN(C)CC4)ccc3OCC)nc12
IC50 (Solute carrier organic anion transporter family member 1B3 (SLCO1B3, Homo sapiens, UniProt Q9NPD5); transport, inhibitor; OATP1B3, literature value, with: Bosentan substrate): 4 µM

c1ccc2c(c1)OCC(C1=NCCN1)O2 (stereo not drawn)
IC50 (imidazoline I2 receptor, brain; radioligand binding): 0.012 µM

CN1COCN(Cc2cnc(Cl)s2)/C1=N\[N+](=O)[O-]
measured soil concentration (test soil; 1.12 mg/kg nominal, 0 days): 0.94 mg/kg dry soil

CNCCN1C(=O)[C@H](OC(C)=O)[C@H](c2ccc(OC)cc2)Sc2ccccc21
KI (Cytochrome P450 3A4 (CYP3A4, Homo sapiens, UniProt P08684); mechanism-based inhibition, inactivator): 1.74 µM

CP(C)(=O)c1ccc(Nc2nc(C3CCCC3)nc3c2ncn3CCc2cccc(O)c2)cc1
GI50 (KIT D816V cells): 11 nM

O=C(CS)Nc1ccc(Cl)c(Cl)c1
IC50 (A549): > 100 µM

ClC(Cl)=C(c1ccc(Cl)cc1)c1ccc(Cl)cc1
logD (pH 7.4): 6.46

CC(=O)c1c(O)c(C)c(O)c2c1OC1=CC(=O)C(C(C)=O)C(=O)C12C (stereo not drawn)
Ki (Acetylcholinesterase (ache, Electrophorus electricus, UniProt O42275)): 0.16 nM

Cc1ccnc(-c2cc(C)ccn2)c1.[Ru+2].c1ccc(-c2ccnc3c2ccc2c(-c4ccccc4)ccnc23)cc1.c1ccc(-c2ccnc3c2ccc2c(-c4ccccc4)ccnc23)cc1
EC50 (CT26; light irradiation 480 nm): 190 nM

c1ccc2cc3cc4ccccc4cc3cc2c1
relative potency (Ahr; 50% effect level; baseline: benzo[a]pyrene): 11

O=C(O)C(F)(F)C(F)(F)C(F)(F)C(F)(F)C(F)(F)C(F)(F)C(F)(F)F
blood-to-plasma ratio (blood): 0.55

CC(C)n1c(/C=C/C(O)CC(O)CC(=O)O)c(-c2ccc(F)cc2)c2ccccc21 (stereo not drawn)
pharmacokinetics (OATP1B1 polymorphisms; human): no effect

c1ccc2c3c(ccc2c1)-c1cccc2cccc-3c12
relative potency (Ahr; 50% effect level; baseline: benzo[a]pyrene): 1.7

CC[C@@H](C(N)=O)N1CCCC1=O
Ki change (SV2B G240C; concentration not given; baseline: wild-type SV2B): 100 fold

N#CCNC(=O)c1ccc(-c2ccnc(Nc3ccc(N4CCOCC4=O)cc3)n2)cc1
relative potency (JAK1/2 and ACVR1; baseline: momelotinib): ~0.4

CC(C)NC[C@H](O)c1ccc(O)c(O)c1
Ki (human OCT1; competitive inhibitor; MDCK-hOCT1 cell membranes; with: [3H]MPP+): 120000 nM

Cn1c(=O)c2c(nc(C=Cc3cccc(Cl)c3)n2C)n(C)c1=O
Kb (rat A2A receptor-expressing cells; antagonist, cell-based): 60 nM

C/C=C1/CN2[C@H]3Cc4c([nH]c5ccccc45)[C@@H]2C[C@@H]1[C@]3(CO)C(=O)OC
IC50 (mu opioid receptor; cAMP level): 3.1 µM

CC(C)CN(C[C@@H](O)[C@H](Cc1ccccc1)NC(=O)O[C@H]1CO[C@H]2OCC[C@H]21)S(=O)(=O)c1ccc(N)cc1
IC50 (Broad substrate specificity ATP-binding cassette transporter ABCG2 (ABCG2, Homo sapiens, UniProt Q9UNQ0); transport activity, inhibitor; with: estrone sulfate): 75 µM

COc1cccc(CCc2cc(O)c(=O)[nH]n2)c1
IC50 (D-amino acid oxidase mouse; inhibitor): 0.0044 µM
